Results collected from several papers.
A part holds a random share of what one study measured.

Block 1 — method: RNA Bind-n-Seq; form: RNA; medium: in vitro; concentration: 90 pmol; notes: 4-mer, random 30-nt RNA, single round; added: 3 µM DMDA-PatA, 2 mM ADP, 2 mM phosphate; reference: input library; direction: higher = stronger binding
Target: Eukaryotic initiation factor 4A-I (EIF4A1, Homo sapiens, UniProt P60842, residues 1-406, full length assumed)
UniProt P60842, sequence (whole entry, looked up): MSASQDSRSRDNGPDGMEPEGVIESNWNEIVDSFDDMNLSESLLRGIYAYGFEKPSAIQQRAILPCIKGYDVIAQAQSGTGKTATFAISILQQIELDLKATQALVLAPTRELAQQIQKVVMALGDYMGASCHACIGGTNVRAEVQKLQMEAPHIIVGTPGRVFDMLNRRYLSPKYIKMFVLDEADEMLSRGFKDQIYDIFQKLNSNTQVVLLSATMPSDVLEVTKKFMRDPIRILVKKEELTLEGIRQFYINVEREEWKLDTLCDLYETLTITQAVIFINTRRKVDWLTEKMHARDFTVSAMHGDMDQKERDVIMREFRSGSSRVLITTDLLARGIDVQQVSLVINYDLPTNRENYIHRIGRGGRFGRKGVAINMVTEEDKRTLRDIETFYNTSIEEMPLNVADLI
Sequence | 4-mer enrichment [fold]
ACCA | 0.682
GGAU | 0.9
UUGC | 0.805
GACC | 0.625
CUCG | 0.518
GUCC | 0.626
CCGG | 0.594
GAUU | 0.96

Block 2 — method: protein binding microarray; form: double-stranded DNA, one strand shown; medium: in vitro; concentration: not given; reference: not given; direction: higher = stronger binding
Target: Histone acetyltransferase KAT6A, both winged helices, GST fusion (KAT6A, Homo sapiens, UniProt Q92794, residues 1-181)
Notes: 8-mer, flanks averaged, mean of 2 arrays, mostly near background
Target sequence (chain): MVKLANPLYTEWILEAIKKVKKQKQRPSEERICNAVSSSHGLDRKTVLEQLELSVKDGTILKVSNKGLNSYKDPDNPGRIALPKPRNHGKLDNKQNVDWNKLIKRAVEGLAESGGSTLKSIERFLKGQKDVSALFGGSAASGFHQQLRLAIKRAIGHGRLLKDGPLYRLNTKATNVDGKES
Sequence | E-score
CGGTCAAC | 0.181
TAGCGCAA | 0.277
ACGTACTG | -0.146
CGGCGCCG | 0.41
AAGTGTAA | -0.176
AACAGCCA | -0.0495
ATTCTGCC | 0.0118
ACGATATC | -0.0406

Mixed results
Substance | tested on | test | system | conditions | measurement | result
SF3B1 (Homo sapiens, UniProt O75533) | PHF5A (Homo sapiens, UniProt Q7RTV0) | cross-linking MS | cells | added: BSPNO | cross-linked residues | K554 to K13
LMQCWQLLA | HLA class I histocompatibility antigen, A alpha chain, allele A*80:01 (Homo sapiens, UniProt P04439) | peptide-MHC binding | peptide | concentration not given | binding | inactive

Repeated from above (block 1):
Sequence | 4-mer enrichment [fold]
UUGC | 0.805
GACC | 0.625
